Results gathered from unrelated publications.
Every numbered part comes from another study and shows a few of its results, in no order. Substitutions count along the parent as printed.

Series 1 — technique: protein-binding microarray; molecule type: double-stranded DNA, one strand shown; sample: in vitro; concentration: 2540 nM top; notes: 60-bp whole probe; added: salmon DNA 0.4 mg/ml; reference: random background probes; direction: higher = stronger binding; constant ends, left off below: GCCTAGCAC … GTCTTGATTCGCTTGACGCTGCTG
Target: Interferon regulatory factor 3, full length, phosphomimetic (IRF3, Homo sapiens, UniProt Q14653, residues 1-427, S386D/S396D/S398D/S402D/T404D/S405D)
UniProt Q14653, sequence (whole entry, unmodified, looked up): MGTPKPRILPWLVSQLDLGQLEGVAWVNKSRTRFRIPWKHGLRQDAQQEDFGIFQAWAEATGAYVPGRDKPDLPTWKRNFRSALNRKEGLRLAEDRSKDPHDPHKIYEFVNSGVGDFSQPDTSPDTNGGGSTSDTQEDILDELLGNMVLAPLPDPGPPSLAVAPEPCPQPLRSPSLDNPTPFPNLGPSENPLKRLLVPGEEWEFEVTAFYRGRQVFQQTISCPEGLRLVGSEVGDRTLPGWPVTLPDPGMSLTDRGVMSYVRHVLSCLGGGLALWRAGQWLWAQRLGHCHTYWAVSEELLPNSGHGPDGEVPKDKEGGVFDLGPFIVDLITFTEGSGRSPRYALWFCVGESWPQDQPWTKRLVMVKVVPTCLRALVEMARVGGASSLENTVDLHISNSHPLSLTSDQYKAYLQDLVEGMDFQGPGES
Strand | fitted relative affinity [z-score]
TCAGCTTTACTGATGGCACTGTGCTAG | -0.0633
TTAGGTATCGACTATCGGTTGGTGCTA | 0.312
TTAGATTTCGGGACTGGATTTGTGCTA | 1.39
TTAGGTATCGGTCTAGGTTAGTGCTAG | 2.91
TCACTCTTCCTTTACTTACTGTGCTAG | 1.8
ATGTGTTTACAGATGTTTTTGTGCTAG | 0.166
GACCGACTGGGGTTTCGGGACGTGCTA | 1.12
GACGGGTTCGACTATCGGGACGTGCTA | -0.0625
TTAGGACTGGGTCTCGTTTAGTGCTAG | -0.439
TCAGGTCTCTAACTCAAACTGTGCTAG | 0.628
TTAGGTATCGACACTGAGTTAGTGCTA | 0.23
GACGATTTCAGTTACGAGACGTGCTAG | 1.83
TCATTTTCAATTTTTGCACTGTGCTAG | 2.79
GACGATATCCGTTTCGAGACGTGCTAG | 3.93
TCAAATATTCATTTTATACTGTGCTAG | 1.06
CTGGTTTTACTTTCTATCTCGTGCTAG | 5.3
TCATATTTTTTTCCAGAACTGTGCTAG | 0.756
GACGGTCTCGTTTTCCTGACGTGCTAG | 2.38

Series 2 — technique: DHFR PCA, deep sequencing; sample: yeast; added: (+)-ABA 0.11 µM; reference: wild-type fitted maximum; direction: higher = stronger binding
Target: ABI1, truncated, D143A, DHFR fusion (Arabidopsis thaliana)
Notes: methotrexate growth selection, single substitutions
Starting sequence: PYL1, truncated, DHFR fusion (Arabidopsis thaliana); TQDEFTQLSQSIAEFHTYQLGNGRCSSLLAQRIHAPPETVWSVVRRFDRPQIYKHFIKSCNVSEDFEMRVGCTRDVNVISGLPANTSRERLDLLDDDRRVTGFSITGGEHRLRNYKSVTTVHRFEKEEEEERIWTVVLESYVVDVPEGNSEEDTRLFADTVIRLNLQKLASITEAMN
Variant | relative binding score [%]
I57L | 1.44
D95R | -3.45
V121Y | -8.13
F47G | 0.704
F157Y | 44.2
S150I | -4.64
V136I | 39
T17F | -3.96
K168G | -0.935
D48L | -2.37
L138F | 9.3
R155I | 7.5
E109G | -0.838
N61Y | 35.9

Series 3 — technique: RNA Bind-n-Seq; molecule type: RNA; sample: in vitro; concentration: 200 nM; notes: whole 134-nt RNA, ends assumed; added: 150 mM LiCl; reference: input library; direction: higher = stronger binding; all molecules: 7-deaza-guanosine replaces G
Target: Fragile X messenger ribonucleoprotein 1, C-terminal low-complexity region (Fmr1, Mus musculus, UniProt P35922)
Constant ends, left off below: GGGAGUUCUACAGUCCGACGAUC … UGGAAUUCUCGGGUGUCAAGG
Strand | log2 enrichment
CCUCAAGUCCUGUGCUACACAUCGUAUGUACCGAAUCGGGAGGGUGGGAGGGAAAGUAUUAUGUUACGCCGUUCGGAUCUGCACUUCCAG | -0.89
CCUCAAGUCCUGUGCUACACAUCGUAUGUACCGAAUCGGGGUGGUGGGGUGGAAAGUAUUAUGUUACGCCGUUCGGAUCUGCACUUCCAG | -0.865
UGGGAGGUGGAUUUUGUUUAUUUUUUUAGCUCAUUUCCAGGGGUGGGAAUUUUUUUUUAAUAUGUGUCAUGCAUAAAGUUGUUUUUGAAA | 0.287
CCUCAAGUCCUGUGCUACACAUCGUAUGUACCGAAUCGGGCGGGGCGGCGGGGAAAGUAUUAUGUUACGCCGUUCGGAUCUGCACUUCCA | -0.881
CUGUGCUACACAUCGUAUGUACCGAAUCGGGAAAAAAGGGGAAAAAAGGGGAAAAAAGGGGAAAGUAUUAUGUUACGCCGUUCGGAUCUG | 0.956
CCUGUGCUACACAUCGUAUGUACCGAAUCAAAUUUUUUUAAAUUUUUUUAAAUUUUUAAAAAAGUAUUAUGUUACGCCGUUCGGAUCUGC | -2.87
UGUGCUACACAUCGUAUGUACCGAAUCGGGCCCCCCCGGGGCCCCCCCGGGCCCCCCCGGGGAAAGUAUUAUGUUACGCCGUUCGGAUCU | -2.33
GUCCUGUGCUACACAUCGUAUGUACCGAAUCGGGGAGGGGAAAGGGGUUUUUUUGGGGAAAGUAUUAUGUUACGCCGUUCGGAUCUGCAC | 0.941

Series 4 — target: CCNE2, cyclin fold, Cln2 fusion (human); technique: yeast growth competition, sequencing; sample: yeast; notes: weak parent motif; reference: not given; direction: higher = stronger binding
Starting sequence: ORC1 docking peptide (human); PRARKRLELGNLG
Variant | normalised enrichment score
R4Y | 1.18
K5A | 0.403
P1R | 0.902
L9V | 1.36
N11Q | -0.294
L7N | -0.0222
R4T | 0.405
G13H | 0.815
R4N | 0.752
G13N | 0.928
L9M | 0.815
G10M | 0.933
G10P | 0.0886
L9I | 0.521
K5I | 0.821
R2M | 1.22
R6T | 0.537
E8Q | 1.54
